Results from different studies.
Lines come from different studies, so protocols differ. “And” joins repeats or separate records; there may be more than shown. Numbers after ± are the reported error.
CASP7: Caspase-7 (CASP7, Homo sapiens, UniProt P55210)
Chain of UniProt P55210 (whole entry, looked up): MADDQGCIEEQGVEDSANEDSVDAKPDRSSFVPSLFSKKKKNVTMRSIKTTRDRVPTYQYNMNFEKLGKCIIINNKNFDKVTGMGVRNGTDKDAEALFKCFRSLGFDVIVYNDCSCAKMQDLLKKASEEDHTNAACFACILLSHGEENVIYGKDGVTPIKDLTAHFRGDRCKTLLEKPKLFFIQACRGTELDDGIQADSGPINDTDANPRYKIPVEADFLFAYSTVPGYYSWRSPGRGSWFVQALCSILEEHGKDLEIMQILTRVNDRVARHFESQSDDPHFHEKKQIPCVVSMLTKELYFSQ
Gria2: Glutamate receptor 2 (Gria2, Rattus norvegicus, UniProt P19491)
Chain of UniProt P46089 (whole entry, looked up): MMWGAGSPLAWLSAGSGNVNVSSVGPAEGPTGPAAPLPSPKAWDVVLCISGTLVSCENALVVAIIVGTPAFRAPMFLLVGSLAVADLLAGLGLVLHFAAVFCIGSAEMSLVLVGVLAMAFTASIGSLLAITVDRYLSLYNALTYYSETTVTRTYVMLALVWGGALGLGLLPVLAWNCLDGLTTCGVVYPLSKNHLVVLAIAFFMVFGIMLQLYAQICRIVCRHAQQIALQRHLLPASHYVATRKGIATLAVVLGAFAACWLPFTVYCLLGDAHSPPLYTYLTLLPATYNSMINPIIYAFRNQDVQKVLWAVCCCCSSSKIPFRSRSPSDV
Chain of UniProt P09936 (whole entry, looked up): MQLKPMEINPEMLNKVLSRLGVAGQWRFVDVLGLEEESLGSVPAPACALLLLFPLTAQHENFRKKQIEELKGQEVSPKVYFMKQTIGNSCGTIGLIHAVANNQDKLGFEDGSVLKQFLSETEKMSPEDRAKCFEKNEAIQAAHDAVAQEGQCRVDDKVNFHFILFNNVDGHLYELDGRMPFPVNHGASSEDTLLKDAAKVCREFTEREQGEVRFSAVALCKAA
Chain of UniProt P19491 (whole entry, looked up): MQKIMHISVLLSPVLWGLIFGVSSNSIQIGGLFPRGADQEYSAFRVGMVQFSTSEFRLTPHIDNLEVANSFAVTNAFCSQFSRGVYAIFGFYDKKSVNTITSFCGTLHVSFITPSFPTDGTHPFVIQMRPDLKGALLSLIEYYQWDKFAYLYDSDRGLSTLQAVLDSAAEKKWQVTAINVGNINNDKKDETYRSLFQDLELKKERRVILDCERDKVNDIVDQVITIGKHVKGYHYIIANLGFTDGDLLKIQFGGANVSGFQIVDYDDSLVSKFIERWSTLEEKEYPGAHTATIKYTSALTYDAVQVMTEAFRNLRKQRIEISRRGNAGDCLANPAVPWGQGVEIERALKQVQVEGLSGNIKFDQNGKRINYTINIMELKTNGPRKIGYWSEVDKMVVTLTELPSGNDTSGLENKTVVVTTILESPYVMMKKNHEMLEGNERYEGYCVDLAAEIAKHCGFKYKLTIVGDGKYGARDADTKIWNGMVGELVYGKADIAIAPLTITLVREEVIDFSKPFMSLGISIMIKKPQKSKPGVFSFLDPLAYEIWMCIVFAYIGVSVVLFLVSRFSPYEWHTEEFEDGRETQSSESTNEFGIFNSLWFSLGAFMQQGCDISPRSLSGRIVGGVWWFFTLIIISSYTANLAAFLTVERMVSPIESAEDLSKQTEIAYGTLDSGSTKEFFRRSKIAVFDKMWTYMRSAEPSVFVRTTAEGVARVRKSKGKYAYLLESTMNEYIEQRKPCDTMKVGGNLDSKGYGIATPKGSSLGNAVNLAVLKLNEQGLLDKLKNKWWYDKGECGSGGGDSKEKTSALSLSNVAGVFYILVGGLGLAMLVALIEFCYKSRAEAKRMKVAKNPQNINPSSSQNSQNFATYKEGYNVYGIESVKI
Chain of UniProt Q9UP83 (whole entry, looked up): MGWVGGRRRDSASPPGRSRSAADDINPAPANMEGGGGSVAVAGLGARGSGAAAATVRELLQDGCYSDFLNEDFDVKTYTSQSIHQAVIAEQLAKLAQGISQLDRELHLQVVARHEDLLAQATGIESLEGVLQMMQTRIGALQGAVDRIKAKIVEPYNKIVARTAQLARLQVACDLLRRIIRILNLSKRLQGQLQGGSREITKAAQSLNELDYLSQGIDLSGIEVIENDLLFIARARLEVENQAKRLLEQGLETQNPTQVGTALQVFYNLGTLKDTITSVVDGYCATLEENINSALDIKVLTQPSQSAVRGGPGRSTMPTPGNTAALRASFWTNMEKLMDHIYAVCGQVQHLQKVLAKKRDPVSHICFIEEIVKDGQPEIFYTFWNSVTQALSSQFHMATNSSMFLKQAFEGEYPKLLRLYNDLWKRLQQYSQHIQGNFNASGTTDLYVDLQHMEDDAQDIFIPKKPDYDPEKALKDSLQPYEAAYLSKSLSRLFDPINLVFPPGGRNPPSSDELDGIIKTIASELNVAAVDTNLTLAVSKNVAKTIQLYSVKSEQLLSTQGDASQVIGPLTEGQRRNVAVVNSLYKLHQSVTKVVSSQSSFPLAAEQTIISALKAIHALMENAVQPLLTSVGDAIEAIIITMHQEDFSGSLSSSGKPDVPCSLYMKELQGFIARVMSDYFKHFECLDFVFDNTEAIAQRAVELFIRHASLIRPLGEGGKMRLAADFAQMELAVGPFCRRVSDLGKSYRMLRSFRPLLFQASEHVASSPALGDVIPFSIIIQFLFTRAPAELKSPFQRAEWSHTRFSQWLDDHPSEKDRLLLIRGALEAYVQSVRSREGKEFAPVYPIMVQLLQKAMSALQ
Chain of UniProt P32241 (whole entry, looked up): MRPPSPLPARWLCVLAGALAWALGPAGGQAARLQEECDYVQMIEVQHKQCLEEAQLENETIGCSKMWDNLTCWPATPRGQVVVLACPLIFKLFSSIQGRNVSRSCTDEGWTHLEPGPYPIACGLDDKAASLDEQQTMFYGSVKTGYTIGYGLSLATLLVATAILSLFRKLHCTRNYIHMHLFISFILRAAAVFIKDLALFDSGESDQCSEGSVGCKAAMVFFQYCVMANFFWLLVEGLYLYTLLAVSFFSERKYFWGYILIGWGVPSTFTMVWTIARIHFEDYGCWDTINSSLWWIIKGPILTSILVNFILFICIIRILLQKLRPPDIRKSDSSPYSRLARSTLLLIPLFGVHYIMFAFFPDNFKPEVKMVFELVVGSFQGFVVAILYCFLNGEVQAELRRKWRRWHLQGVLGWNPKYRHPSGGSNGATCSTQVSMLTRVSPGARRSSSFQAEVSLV
Chain of UniProt P34972 (whole entry, looked up): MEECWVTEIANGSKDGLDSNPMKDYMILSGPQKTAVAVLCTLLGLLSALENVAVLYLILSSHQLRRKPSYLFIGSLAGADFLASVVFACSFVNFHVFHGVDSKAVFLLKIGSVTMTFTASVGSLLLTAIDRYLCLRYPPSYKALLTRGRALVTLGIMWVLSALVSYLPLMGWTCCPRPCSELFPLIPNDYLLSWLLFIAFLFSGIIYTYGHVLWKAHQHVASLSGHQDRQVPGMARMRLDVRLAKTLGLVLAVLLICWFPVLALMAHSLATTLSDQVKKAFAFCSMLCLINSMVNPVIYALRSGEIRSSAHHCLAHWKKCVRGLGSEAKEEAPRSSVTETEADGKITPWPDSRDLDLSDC
Chain of UniProt P48643 (whole entry, looked up): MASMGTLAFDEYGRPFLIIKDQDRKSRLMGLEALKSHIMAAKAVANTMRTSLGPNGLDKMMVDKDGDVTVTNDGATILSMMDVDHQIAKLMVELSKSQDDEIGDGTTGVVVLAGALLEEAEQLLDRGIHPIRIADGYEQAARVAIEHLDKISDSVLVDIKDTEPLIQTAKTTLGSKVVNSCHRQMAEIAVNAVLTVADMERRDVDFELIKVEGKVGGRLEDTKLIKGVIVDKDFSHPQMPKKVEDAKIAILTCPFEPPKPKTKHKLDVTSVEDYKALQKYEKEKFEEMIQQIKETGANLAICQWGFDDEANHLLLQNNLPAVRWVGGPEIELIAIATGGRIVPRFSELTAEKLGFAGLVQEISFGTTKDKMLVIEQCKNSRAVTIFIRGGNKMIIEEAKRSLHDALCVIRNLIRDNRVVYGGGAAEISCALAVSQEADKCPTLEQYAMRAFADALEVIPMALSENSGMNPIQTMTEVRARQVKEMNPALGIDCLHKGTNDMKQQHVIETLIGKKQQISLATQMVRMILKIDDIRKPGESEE
Chain of UniProt Q704Y3 (whole entry, looked up): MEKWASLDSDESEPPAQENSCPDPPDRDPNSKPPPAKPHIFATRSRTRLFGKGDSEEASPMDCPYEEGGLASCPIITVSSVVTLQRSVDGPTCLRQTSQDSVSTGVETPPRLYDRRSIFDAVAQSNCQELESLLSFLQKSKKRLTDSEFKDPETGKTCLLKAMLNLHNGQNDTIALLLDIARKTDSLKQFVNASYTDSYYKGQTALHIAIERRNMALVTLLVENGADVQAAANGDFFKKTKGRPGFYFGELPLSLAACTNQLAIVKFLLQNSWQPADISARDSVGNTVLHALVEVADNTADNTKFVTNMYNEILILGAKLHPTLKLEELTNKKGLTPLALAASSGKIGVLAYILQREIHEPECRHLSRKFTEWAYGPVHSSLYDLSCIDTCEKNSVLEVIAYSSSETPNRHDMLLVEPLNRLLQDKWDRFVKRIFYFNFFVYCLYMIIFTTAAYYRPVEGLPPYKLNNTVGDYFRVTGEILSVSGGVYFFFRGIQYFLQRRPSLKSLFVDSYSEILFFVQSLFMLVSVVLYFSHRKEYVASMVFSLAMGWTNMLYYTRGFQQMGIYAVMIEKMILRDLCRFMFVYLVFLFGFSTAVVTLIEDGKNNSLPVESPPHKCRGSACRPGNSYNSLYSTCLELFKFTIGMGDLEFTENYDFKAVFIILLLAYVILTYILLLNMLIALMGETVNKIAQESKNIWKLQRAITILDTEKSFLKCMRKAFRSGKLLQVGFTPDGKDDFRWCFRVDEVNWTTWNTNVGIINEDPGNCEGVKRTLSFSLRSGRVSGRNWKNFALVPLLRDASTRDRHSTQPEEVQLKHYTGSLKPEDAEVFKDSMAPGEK

Structure (SMILES) | target or system | test | system | setting | scale | measurement | result
CN1CCCNC(=O)c2cccc(c2)C(=O)NCCCN(C)CCCNc2cccc3c2C(=O)c2cccc(c2C3=O)NCCC1 | SAS | RNA-Seq, measured: HJURP mRNA | – | 1 µM, 6 h | relative to: untreated cells | log2 fold change | -0.652
CCCCCC(O)/C=C/C=O (stereo not shown) | CCT5 (Homo sapiens, UniProt P48643) | competitive isoTOP-ABPP | Ramos soluble proteome | 100 µM, added: iodoacetamide probe | relative to: DMSO over compound-treated, higher = stronger cysteine blockade | isoTOP-ABPP competition ratio | 1.2
COC1CN([C@H]2CC[C@H]([C@@]3(C)Oc4c(Cl)cc(C(=O)NCc5c(SC)cc(C)[nH]c5=O)c(C)c4O3)CC2)C1 | – | RNA-seq, measured: CKB | human, whole blood | dose not given, 24 h | relative to: pretreatment baseline | log2 fold change | 1.54
Cc1ncsc1-c1ccc(C(C)NC(=O)C2CC(O)CN2C(=O)C(NC(=O)CCCCCCCCCCN2CCCC(Nc3ncc(Cl)c(Nc4ccccc4S(=O)(=O)C(C)C)n3)C2)C(C)(C)C)cc1 (stereo not shown) | 22Rv1 | RNA-seq, measured: RIPK1 mRNA | – | concentration not given | relative to: DMSO | log2 fold change | -1.01
O=C(Nc1cnccc1-c1ccc([18F])nc1)c1ccnc(NC(=O)C2CC2)c1 | – | – | FVB/NJ mice, both sexes, liver | intravenous, 20 min, median, P-gp inhibitor pretreatment, added: tariquidar 15 mg/kg iv | – | SUV | 8.86
Cc1cc(C)cc(COc2cc3c(cc2OCc2cc(C)cc(C)c2)C2CC(O)(Cc4cn(CCOCCOCCNC(=O)CCCCC5SCC6NC(=O)NC65)nn4)CC(C)N2CC3)c1 (stereo not shown) | Conserved oligomeric Golgi complex subunit 5 (Homo sapiens, UniProt Q9UP83) | biotinylated probe pull-down, measured: COG5 | – | 10 µM probe | relative to: heavy over light | SILAC ratio | 2.21
CC(=O)N[C@H](C(=O)N[C@@H](CCCC(=O)O)C(=O)N[C@@H](CCC1CCCCC1)C(=O)N[C@@H](CC(=O)O)C(=O)COC(=O)c1c(C)cccc1C)C(C)(C)C | CASP7 | enzyme activity, inhibitor | – | – | – | kinact/KI | 7000 M⁻¹ s⁻¹
N#CN1CC[C@H](C(=O)Nc2nc3c(s2)CN(C(=O)Cn2cc(COCCOCCOCCOCCNC(=O)CCCC[C@@H]4SC[C@@H]5NC(=O)N[C@@H]54)nn2)CC3)C1 | UCHL1 (Homo sapiens, UniProt P09936) | probe binding, affinity probe, neutravidin pull-down LC-MS/MS | HEK293T, cell lysate | 5 µM, 1 h, single replicate, unit not given | higher = more pulled down | iBAQ abundance | 2.26e+09 and 3.39e+09 and 5.44e+08
CCOC(=O)C(CC)(CCCSCCOCCNC(=O)OC(C)(C)C)NC(=O)c1ccc(C2CC2)c(Cc2ccc(F)cc2)n1 (stereo not shown) | CNR2 (Homo sapiens, UniProt P34972) | radioligand binding | – | – | relative to: CB1 over CB2 (human) | Ki ratio | 12
O=C1c2sc(-c3ccc(N4CCC(CO)CC4)nc3F)nc2CCN1c1cccnc1 | VIPR1 (Homo sapiens, UniProt P32241) | ligand displacement, radioligand | – | 1 µM | – | inhibition | 4%
CCn1cc(-c2cccc(C(F)(F)F)c2)c2sc(C(=N)NC3CCS(=O)(=O)CC3)cc2c1=O | PHIP, BD2 (Homo sapiens, UniProt Q8WWQ0) | – | – | – | – | ΔTm | -0.8 °C
CCCCCCCC/C=C\CCCCCCCC(=O)NCCO | Trpv1 (Mus musculus, UniProt Q704Y3) | ion current, agonist, whole-cell patch clamp | HEK293 | – | relative to: 3 mM 2-APB current | maximal open probability | 0.64 ± 0.07
O=C(O)C(Cc1c[nH]cn1)N1C(=O)c2ccc3c4ccc5c6c(ccc(c7ccc(c2c37)C1=O)c64)C(=O)N(CCN1CCCCC1)C5=O (stereo not shown) | hTERT promoter G-quadruplex DNA | binding, thiazole orange displacement | – | pH 8 | – | DC50 | 720 ± 250 nM
O=C(O)Cc1cc2c(cc1C(=O)c1cccc(Cl)c1)OCO2 | Gria2 | glutamate-evoked current, whole-cell patch clamp | HEK-293T | concentration not given, weighted tau, 1 ms pulse, added: glutamate | – | deactivation time constant | 9.8 ± 0.6 ms
Cc1ccc(-c2c[nH]nc2C(=O)Nc2cccnc2)c(C)c1 | human kinase panel | binding, KINOMEscan | – | 10000 nM, %Ctrl below 1 | – | number of kinases hit | 0
C=CC(=O)Nc1cccc(Cn2ncc3cnc(Nc4cnn(CCOC)c4)nc32)c1 | CDK9 human | binding, KINOMEscan | – | 100 nM | lower = stronger binding | percent of control | 100%
NC(=O)c1cccc(NC(=O)c2cccnc2N2CCOCC2)c1 | Genome polyprotein, NS2B-NS3 protease (dengue virus type 2, UniProt P29990) | enzyme activity, fluorogenic AMC substrate | – | 50 µM | – | inhibition | 21%
O=C(O)C(Cc1c[nH]cn1)N1C(=O)c2ccc3c4ccc5c6c(ccc(c7ccc(c2c37)C1=O)c64)C(=O)N(C(Cc1c[nH]cn1)C(=O)O)C5=O (stereo not shown) | hTERT promoter G-quadruplex DNA | binding, thiazole orange displacement | – | pH 8 | – | DC50 | > 2500 nM
CC(C)Oc1cc(Cl)ccc1CNc1cc(-c2ccccc2)nc2ncnn12 | GPR3 (Homo sapiens, UniProt P46089) | cAMP reporter | human cells | 100 pM | higher is more cAMP | cAMP luminescence | 43800 a.u. and 70500 a.u. and 62700 a.u. and 31300 a.u. and 49200 a.u. and 31800 a.u. and 32700 a.u. and 35700 a.u.
COC(=O)[C@@]1(C)C=C(C(=O)Nc2cccc(C(=O)Nc3ccc(Nc4nccc(-c5cccnc5)n4)c(C)c3)c2)C(=O)CC1 | MAPK8 (Homo sapiens, UniProt P45983) | enzyme activity, inhibitor, radiometric | – | 1 µM | – | remaining activity | 2%
CC(=O)N[C@@H](CC(=O)O)C(=O)N[C@@H](Cc1ccc2ccccc2c1)C(=O)N[C@@H](C)C(=O)N[C@@H](CC(=O)O)C(=O)COC(=O)c1c(C)cccc1C | CASP7 | enzyme activity, inhibitor | – | – | – | kinact/KI | 197000 M⁻¹ s⁻¹
O=C(O)Cc1cc2c(cc1C(=O)c1ccccc1Br)OCO2 | Gria2 | whole-cell patch clamp | HEK-293T | concentration not given, added: glutamate | – | deactivation time constant | 5.9 ± 0.3 ms

Excerpt of the above:
Structure (SMILES) | target or system | test | system | setting | scale | measurement | result
CCn1cc(-c2cccc(C(F)(F)F)c2)c2sc(C(=N)NC3CCS(=O)(=O)CC3)cc2c1=O | PHIP, BD2 (Homo sapiens, UniProt Q8WWQ0) | – | – | – | – | ΔTm | -0.8 °C
CCCCCCCC/C=C\CCCCCCCC(=O)NCCO | Trpv1 (Mus musculus, UniProt Q704Y3) | ion current, agonist, whole-cell patch clamp | HEK293 | – | relative to: 3 mM 2-APB current | maximal open probability | 0.64 ± 0.07
